Experimental data from different studies.
Parts stem from different laboratories: compare values within a part only. Positions count from the first letter of the parent shown.

Sample 1 — method: EMSA with sequencing; form: double-stranded DNA, one strand shown; sample: in vitro; concentration: 10 and 20 nM; baseline: negative control set to 0; direction: higher = stronger binding; quantity: normalised bound fraction
Target: Hepatocyte nuclear factor 3-alpha (Foxa1, Mus musculus, UniProt P35582, residues 1-468, full length assumed)
Notes: whole designed probe, mean of two concentrations, ends assumed
All sequences stand within: GTGAGCGGTGCCCATTGATGGGGAAC … TTTCACTGGGATCGTGGGGAC
Construct (chain): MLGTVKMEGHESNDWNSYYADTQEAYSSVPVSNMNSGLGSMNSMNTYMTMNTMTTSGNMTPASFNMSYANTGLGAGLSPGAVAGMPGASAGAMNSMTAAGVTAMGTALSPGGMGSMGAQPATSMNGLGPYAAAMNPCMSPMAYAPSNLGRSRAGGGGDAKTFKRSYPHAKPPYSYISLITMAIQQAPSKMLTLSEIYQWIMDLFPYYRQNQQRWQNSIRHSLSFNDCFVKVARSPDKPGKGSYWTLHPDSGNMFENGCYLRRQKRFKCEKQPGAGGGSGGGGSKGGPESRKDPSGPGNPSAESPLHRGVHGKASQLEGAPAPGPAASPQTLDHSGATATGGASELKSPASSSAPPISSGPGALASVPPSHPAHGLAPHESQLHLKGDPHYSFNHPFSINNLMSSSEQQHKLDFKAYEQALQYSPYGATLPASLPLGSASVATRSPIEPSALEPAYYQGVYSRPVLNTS
ATCTTCCCCCTCTTCCTTGCCCCACCAGCTCACCTACGGGGGTTATTTGCAGATAGGAAAATAAATAAAGCCGGCATTCGTTAACCCTCTTCTGGCGCAAACTGCTGTTTGCTCTGGATCTAACATGGTCCTTTGGCGAGGCGTGGCTCCGGGAGAGCAAAGCACCGTGTCAGGGCCATGATCCGGGGTGGCC: 0.347 ratio
CAAACTTTGCTGTAGTTTAACCCTGTAAATCATTGGAAAGTTTATCAAATACCTTAAATGCTTTTGCAACTTATTCATTCCCTGGTTATTTGGGTAAACAAGTACAGCGAACAGTTGGATGAACTTTATCTGAACTATTATCACTGAGCTGTTGGGGGAAATTCCGTCTTTTCCAAATCTGTACTGCGATATA: 0.174 ratio
TCTTTCACTCAAGTGGTATATCCCACAGCCCTAAAGAAGCAAGGGAAATAAGAATTAGAACTAGACATCCCAGGAGACAAAGAATTCAACAAAGCAAACATTAACCAATCCCTTCACTATTTACCACTTCCTGCAGAAAATCTCTCTGGCTCAGGCCGGGCAGTGAGTTCATTTATTTCAACAAAATCAAAGA: 0.328 ratio
ATCTTCCCCCTCTTCCTTGCCCCACCAGCTCACCTTCCCGGGTCAAAGTAAACAAGTGTTTACTTTGAAGCCGGCATTCGTTAACCCTCTTCACGCGCATACTGCTGTTTGCTCTGGATGAATCATGGTCCTTTGGCGACGCCAGGCTCCGGGAGAGCAAAGCACCGTGTCAGGGCCATGATCCGGGGTGGCC: 0.451 ratio
ATCTTCCCCCTCTTCCTTGCCCCACCAGCTCACCTTCCCGGGTTATTTGCAGATAGGAAAATAAATAAAGAGCCCCGTTGTTAACCCTCTTCTGGCGCAAACTGCTGTTTGCTCTGGATGAATCATGGTCCTTTGGCGACGCCAGGCTCCGGGAGAGCAAAGCACCGTGTCAGGGCCATGATCCGGGGTGGCC: 0.365 ratio
AGCATTAACTCAAGCTGTTAGAATCAAGAATCCTAAGGAAAACAGATAGAAATAAATTACTGTATAAAATAGAAATGACTATATTGAAATAAGTAATCTTGGAATAACTAAATATTTTTCAAATAAATTATTAGTGGGCCTATGAGGAAAATAAGGAAAAAGCAATATAAATAAAAAGCAAATAAATAAAACT: 0.423 ratio
ATTGAATTATAAAGTATTCCAGATTCACTAAAACCACTAGAGTCACAGACATAGGCTTTCTATAAAATACAGTGTGCATTTGTCAGTCTTTCCTTGTTTACTTTCCTTTAGTCCCATTTTCACCACAGCTGGGTTACTTGGTGCCAACCAGAACTCTGCCTCCCTCCACCTTAAACTATAAATCTTTATGCAA: 0.377 ratio
GCTGTCAGCCTCTTCTCCGTGGTGTTTTCTTGGAGCAAGTCCAAAGCAAAATCCTGATGCAAACAGTAACTATGGTTGTACATTGTTAAGTTGTATTTACTTTTTTGAATAGATAACGTTTACACGATCAAGATTCAGAATGTACCAAAAGTCCCCCAGTTGTCAGTTTTCCTCTCTGGAAATATACAGGAGG: 0.291 ratio

Sample 2 — target: CCND1, cyclin fold, Cln2 fusion (human); method: yeast growth competition, sequencing; sample: yeast; notes: weak parent motif; baseline: not given; direction: higher = stronger binding; quantity: normalised enrichment score
Starting sequence: CENPC docking peptide (human); VKTKKRLNFDDKV
K4A: 0.512
D10A: -0.312
K2A: 0.314
T3A: 0.528
K5R: 2.08
K12A: 0.661
F9A: -0.0123
K5A L7A: 0.128
V1A: 0.505
K5R F9L: 0.0509

Sample 3 — method: DHFR PCA, deep sequencing; sample: yeast; added: (+)-ABA 0.032 µM; baseline: wild-type fitted maximum; direction: higher = stronger binding; quantity: relative binding score
Target: ABI1, truncated, D143A, DHFR fusion (Arabidopsis thaliana)
Notes: methotrexate growth selection, single substitutions
Starting sequence: PYL1, truncated, DHFR fusion (Arabidopsis thaliana); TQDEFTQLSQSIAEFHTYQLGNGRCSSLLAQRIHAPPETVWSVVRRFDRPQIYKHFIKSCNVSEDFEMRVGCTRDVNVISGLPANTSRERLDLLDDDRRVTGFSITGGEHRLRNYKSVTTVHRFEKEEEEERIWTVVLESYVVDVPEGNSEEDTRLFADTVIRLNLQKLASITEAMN; partner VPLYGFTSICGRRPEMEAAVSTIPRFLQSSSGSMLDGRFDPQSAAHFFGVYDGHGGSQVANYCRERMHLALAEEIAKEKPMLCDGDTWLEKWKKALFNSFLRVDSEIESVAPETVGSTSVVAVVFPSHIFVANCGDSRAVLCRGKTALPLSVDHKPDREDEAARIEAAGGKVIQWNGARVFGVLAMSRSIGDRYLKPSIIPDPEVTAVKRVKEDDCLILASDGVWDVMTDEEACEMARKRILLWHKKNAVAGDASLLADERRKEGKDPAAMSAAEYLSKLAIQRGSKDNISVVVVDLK
I12R: 2.38%
G102M: 0.0762%
S59P: -3.4%
D92H: 0.401%
T6R: 51.4%
R46Q: 44.7%
S87Q: 50.4%
Y115T: 1.04%
S140C: 3.73%
S80R: 1.2%
F15T: 2.36%
E131A: 37.9%
G71Q: -2.95%
V70I: 17.2%
W134C: 26.3%
E127M: 40%

Sample 4 — method: RNA Bind-n-Seq; form: RNA; sample: in vitro; concentration: 365 nM; baseline: no-protein control; direction: higher = stronger binding; quantity: RBNS enrichment (R)
Target: RNA binding protein fox-1 homolog 2, RRM domain, GST-SBP tag (RBFOX2, Homo sapiens, UniProt O43251-10, residues 100-194)
Notes: natural RNA segment, single round, ends assumed
All sequences stand within: GGGAGUUCUACAGUCCGACGAUC … UGGAAUUCUCGGGUGCCAA
Target sequence (chain): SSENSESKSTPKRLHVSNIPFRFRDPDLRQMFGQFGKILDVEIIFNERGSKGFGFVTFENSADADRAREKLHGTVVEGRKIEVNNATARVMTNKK
AUAUGCCCAAAACUCAGAUCUUUAGAAGUGAUCUUUCACUUGCUUAAUUGCAAAGUAGUUCAAAGCAAAGAAAAGCUUACAUUAAUCCCUAGAUUUUAGAACUGUAUGUA: 0.57
GAGAAAUGUCCUCAUAUUUGAGGACCAUGAAACAUUGUAGGUAUAUAUGGGGCUUUAGCAAGUUUGAGCAUAGGCUCUUUUUGCUGCCUGUGAGCAGUCCCUCUGGAAAG: 0.429
AGCAAAUGAAAAAGUGCAGUUAAUUCAAGAACAGGAAUCCCUGUGUCCUUGCUGGGAUUUCCUUUUGGGAACCUGACUUUCCGACUCCAGAUCCUGCUGUCUGGAUCAGU: 0.384
CCUCCGACACCCAUCCCACUCCCAACCACCAAGACCCUGGGUUAGGGAAGAAGUUGUAUCUUAAGUGCCACCUUCAAGUUUCUUAGUGGUGCCUGGUGCAUUCCGAGGCU: 0.586
GGACAGUGAAGAGGGUUGGGGCAAUGGCUCAGCUAUGUAAGUGUGUGUGUGCAGUUCAAUCCCGAGGACUGGAAUUUGGAUCCCACCACACACAUAACAAGCCACAUAUU: 0.835
CAAACCAAUUGCCUCAGGCUAUCUGUGUAAGGUGUCUAUGUGAAACCUAAAUGAAUUUCAUGAUUAGAGGUGCUCCCACCUGCCAAAUAAUCCCGCCACAAAUAUGCAAA: 0.407
AGUCACACAACCAAAGGUAGACUCAGACCAGUUCAGUGCUCCUGGUGGCCAUAGGGACCAGAAAGCAGCUUAGGAAAUCUAUCCAUUGGCCCUUUUAGAGUCUCUGUGUG: 0.386
GCAGAUCCUACAGUCAAUAGAUAAUGAUGAGACUUACAACAUUUCACAUCUCUCUUGAGAAUCCUUUAAGUGCUGUUUAGCCUCCCAACACAUAGAUGCAUAGGAUGGAG: 0.442
AAUGUUUAAUAUUUAAACAAAAUAUUUAUAUCUACACAAUAAAGUUAAUCAACCUUCAAACCAGUCUUGAAGCCAGCUACUUGUUUCUUCAUCUCAGACUCCUAGGGGAA: 0.653
GCAGGAACCGGACGGAAGAAUCCUCUCCAGGAGACUGGGCUUUAGUUAGUGGCUUGAUUCCCCGGCUUGCUCAAGGGAACUCAGAAAAUCAUCGUCCUUGUACUGCGCUU: 2.02
GUAGCUCCUACCAGCCUCCAAUUCUCUAUGUAGCUGAAGAUGACCUUGACUACCUGAGUUUCCUGUCUCUACUUCUUUUCAGCUUCUGGGACCACAGGCCUGUACCACCA: 0.342
UAUGAGCCUGGUUUGUGCAAAAUUAAAUCAGAGGCUUCUACAACAUGGUUUAUUUAUGUUGUAGCAAAGUUGGCUCUACAUAAACAUUGUUCUUAUUUUAAAAUUAACAC: 0.47

Sample 5 — target: JUNB, bZIP domain (human); method: DHFR protein complementation; sample: yeast; baseline: wild-type JUN-FOS pair; direction: higher = stronger binding; quantity: binding fitness
Notes: single substitutions, most at no-binding floor
Starting sequence: JUN, bZIP domain (human); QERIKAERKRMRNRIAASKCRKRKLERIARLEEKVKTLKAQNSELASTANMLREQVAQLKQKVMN; partner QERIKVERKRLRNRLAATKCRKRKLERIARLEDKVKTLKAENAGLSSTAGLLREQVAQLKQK
E33P: -1.52 natural log
S47M: -0.893 natural log
V35S: -1.48 natural log
L31A: -1.44 natural log
E33W: -1.32 natural log
S43N: -1.12 natural log
R53L: -1.46 natural log
R30F: -1.16 natural log
L31D: -1.37 natural log
E44F: -1.24 natural log
E54K: -1.28 natural log
L45M: -1.31 natural log
K39H: -1.37 natural log
S47D: -1.05 natural log
R53S: -1.32 natural log
Q41V: -1.3 natural log
V35E: -1.54 natural log
L31M: -1.5 natural log
K39R: -1.1 natural log
A46K: -0.664 natural log
E44C: -1.35 natural log
K34C: -1.2 natural log
V56R: -1.43 natural log
L45G: -1.51 natural log

Further values, each from its own experiment
PhoQ, residues 284 288 289 292 302 303 SSCCRF — fold induction (PhoP, residues 12 14 15 18 19 TPWTL (Escherichia coli, UniProt P23836); Sort-seq, item: YFP reporter; E. coli; PhoQ-PhoP variant library, added: 10 µM Mg2+; baseline: high Mg2+ state, higher = stronger signaling): 17.8

Repeated from above (sample 3):
G102M: 0.0762%
G71Q: -2.95%
E131A: 37.9%
W134C: 26.3%
S140C: 3.73%
